Assay results collected from several papers.
Protocols differ between the studies behind these lines. Numbers after ± are the reported error.

N=C(N)NCCC[C@@H]1NC(=O)[C@H](CO)NC(=O)[C@@H](NC(=O)[C@H](CO)NC(=O)[C@H](CO)NC(=O)[C@H](Cc2c[nH]c3ccccc23)NC(=O)CNC(=O)[C@H](CO)NC(=O)[C@@H](N)Cc2c[nH]c3ccccc23)CSSC[C@@H](C(=O)NCC(=O)O)NC(=O)[C@H](CO)NC1=O — half-life (patients, plasma; intravenous, 5 mg/kg, thrice weekly, mean): 18 min
Cc1c(Cc2cccc(OC(C)(C)C(=O)O)c2)c2ccc(C(=O)N[C@@H](C)c3cccc(Br)c3)cc2n1C — half-life (human liver microsomes): 59.6 min
O=C(O)c1ccc(OP(=O)(O)O)c(CN2CCC(=C3c4ccc(Cl)cc4CCc4cccnc43)CC2)c1 — half-life (HBSS; 10 µM, 2 h incubation, pH 6.5): > 120 min
Cc1c(Cc2ccc(Cl)c(OC(C)C(=O)O)c2)c2ccc(C(=O)NC(C)c3ccc(C(C)(C)C)cc3)cc2n1CC1CCC1 (centres unmarked) — half-life (mouse liver microsomes; 1 µM, with: microsomes 1 mg/mL): > 60 min
C#Cc1cccnc1 — half-life (pH 7.4): 3040 min
CC(=O)O[C@H]1C(=O)[C@@]2(C)[C@H]([C@H](OC(=O)c3ccccc3)[C@]3(O)C[C@H](OC(=O)[C@H](OCOP(=O)(O)O)[C@@H](NC(=O)c4ccccc4)c4ccccc4)C(C)=C1C3(C)C)[C@]1(OC(C)=O)CO[C@@H]1C[C@@H]2O — half-life (simulated gastric fluid; 10 µM, 2 h incubation, pH 1.2): > 120 min
CC1(C)OCCc2cc(C(=O)N3CCC(c4nc(-c5ccccc5)n[nH]4)CC3)ccc21 — half-life (CD-1 mouse liver microsomes; pH 7.4, with: NADPH): 1.2 min
O=C(N1CCCCC1)C12CC(c3ccccc3)(C1)C2(F)F — half-life (metabolic stability; human liver microsomes; 2 µM, pH 7.4): 86 min
Cc1c(Cc2cccc(OC(C)(C)C(=O)O)c2)c2ccc(C(=O)N[C@@H](C)c3cccc(C(C)(C)C)c3)cc2n1C(C)C — half-life (human liver microsomes): 40.7 min
CCCCCCCCCCCCCC(=S)NCCCC[C@H](NS(C)(=O)=O)C(=O)N[C@@H](C)C(=O)N[C@@H](CCCNC(=N)N)C(N)=O — half-life (male human serum; 150 µM, 37 °C): 168 ± 18 min
COc1ccc(-c2nc(CC(=O)NC(c3nc4ccccc4[nH]3)C(C)C)cs2)cc1OC (centres unmarked) — half-life (oral, 25 mg/kg): 102 ± 24 min
Cn1cnc([N+](=O)[O-])c1Sc1ccccc1C(=O)NCCC(N)=O — half-life (blood stability; Beagle dog blood; 1 µM, 37 °C): 52.7 min
C#Cc1nccs1 — half-life (pH 7.4): 4850 min
CC(C)C[C@H](NC(=O)[C@H](Cc1ccc(O)cc1)NC(=O)[C@H](CC(N)=O)NC(=O)[C@H](CO)NC(=O)[C@H](CCCNC(=N)N)NC(=O)[C@H](Cc1ccc(O)cc1)NC(=O)CNC(=O)[C@H](CCCNC(=N)N)NC(=O)[C@H](Cc1c[nH]cn1)NC(=O)[C@H](CO)NC(=O)[C@H](Cc1c[nH]cn1)NC(=O)[C@H](Cc1c[nH]cn1)NC(=O)[C@H](CCCCN)NC(=O)[C@H](CCC(=O)O)NC(=O)[C@H](Cc1c[nH]cn1)NC(=O)[C@H](Cc1ccccc1)NC(=O)[C@H](CCCCN)NC(=O)[C@H](CCCNC(=N)N)NC(=O)[C@H](CCCCN)NC(=O)[C@H](Cc1ccc(O)cc1)NC(=O)CNC(=O)[C@H](Cc1c[nH]cn1)NC(=O)[C@H](Cc1c[nH]cn1)NC(=O)[C@H](CCCNC(=N)N)NC(=O)[C@H](CCCCN)NC(=O)[C@H](C)NC(=O)[C@H](Cc1c[nH]cn1)NC(=O)[C@H](CO)NC(=O)[C@@H](N)CC(=O)O)C(=O)N[C@@H](Cc1ccc(O)cc1)C(=O)N[C@@H](CC(=O)O)C(=O)N[C@@H](CC(N)=O)C(=O)O — half-life (human whole saliva; 40 µg/mL, median): 1.2 min
O=C(NC1CCC(F)(F)CC1)C(c1cncnc1)N(C(=O)C(F)Cl)c1ccc(-c2cncs2)cc1 (centres unmarked) — half-life (mouse liver microsomes; concentration not given, pH 7.4): 35.7 min
Cc1c(Cc2cccc(OC(C)(C)C(=O)O)c2)c2ccc(C(=O)NCc3cccc(C(C)(C)C)c3)cc2n1CC1CCC1 — half-life (human liver microsomes; 1 µM, with: microsomes 1 mg/mL): 29 min
O=C(O)Cc1ccccc1Nc1c(Cl)cccc1Cl — half-life (human liver microsomes; 1 nM, 0 to 60 min, 37 °C): 10.9 min
CC1(C)OB(c2cc(C(F)(F)F)ccc2C=O)OC1(C)C — half-life (chemical stability, HPLC-MS; BBS buffer with acetonitrile; pH 10.2): < 1 min
CN1CCN(C(=S)N/N=C/c2ccccc2O)CC1 — half-life (plasma; intravenous, 30 mg/kg): 161 ± 92.4 min
Cc1c(Cc2cc(F)cc(OC(C)(C)C(=O)O)c2)c2ccc(C(=O)N[C@@H](C)c3cccc(C(C)(C)C)c3)cc2n1CC(C)C — half-life (mouse liver microsomes; 1 µM, with: microsomes 1 mg/mL): > 60 min
C/C(N)=N/C(=N\S(=O)(=O)c1ccc(C(F)(F)F)cc1)N1C[C@H](c2ccccc2)C(c2ccc(Cl)cc2)=N1 — half-life (mouse liver cytosol): 106 min
CC(C)C[C@@H]1NC(=O)[C@H](C(C)C)NC(=O)[C@H](Cc2c[nH]c3ccccc23)NC(=O)[C@@H]2CSSC[C@H](NC(=O)[C@H](Cc3ccc(O)cc3)NC(=O)[C@H](C(C)C)NC(=O)[C@H](CCCNC(=N)N)NC(=O)CNC(=O)[C@H]3CCCN3C1=O)C(=O)N[C@@H](CCC(N)=O)C(=O)N1CCC[C@H]1C(=O)NCC(=O)N[C@@H](Cc1c[nH]c3ccccc13)C(=O)N2 — half-life (simulated gastric fluid; pH 1.6): 312 min
Cc1c(Cc2cccc(OC(C)(C)C(=O)O)c2)c2ccc(C(=O)N[C@@H](C)c3cccc(C(C)(C)C)c3)cc2n1CC(C)C — half-life (human liver microsomes; 1 µM, with: microsomes 1 mg/mL): > 60 min
O=Cn1nnc2ccccc21 — half-life (reactivity with N-α-acetyl-lysine, HPLC-MS; pH 10.2): 1660 min
Cc1c(Cc2cncc(O[C@H](C)C(=O)O)c2)c2ccc(C(=O)N[C@@H](C)c3ccc(C(C)(C)C)cc3)cc2n1CC1CCC1 — half-life (human liver microsomes): 49.8 min
CCCC/C=C/C(=O)N[C@@H](Cc1cc(F)cc(F)c1)C(=O)N[C@@H]1C(=O)N2CCC[C@H]2C(=O)N(C)[C@@H](C)C(=O)N[C@@H](C)C(=O)N2CCC[C@H]2C(=O)O[C@H]1C — half-life (H-D exchange, 1H NMR, item: alanine amide hydrogen; CD3OD; 25 °C): 2500 min
O=C1CCC(N2C(=O)c3ccc(O)cc3C2=O)C(=O)N1 (centres unmarked) — half-life (D/H back-exchange, LC-HRMS; 0.1 M phosphate buffer in water; pH 7.4, 37 °C): 3300 min
O=C(C(=O)c1ccccc1)C(=O)c1ccccc1 — half-life (chemical stability, HPLC-MS; BBS buffer with acetonitrile; pH 10.2): < 1 min
CCn1c(C)c(Cc2ccc(Cl)c(O[C@H](C)C(=O)O)c2)c2ccc(C(=O)N[C@@H](C)c3ccc(C(C)(C)C)cc3)cc21 — half-life (mouse liver microsomes; 1 µM, with: microsomes 1 mg/mL): > 60 min
Clc1ccncc1 — half-life (pH 7.4): 2530 min
CCN(CC)c1ccc2cc(C(=O)ON3C(=O)CCC3=O)c(=O)oc2c1 — half-life (chemical stability, HPLC-MS; borate buffered saline; pH 10.2, no N-acetyl-lysine): 6 min
CN(C)c1cccc2c(S(=O)(=O)NCCCCNC(=O)c3ccc(NNC(=O)OCc4ccc(O[Si](C)(C)C(C)(C)C)cc4)cc3)cccc12 — half-life (PBS; 37 °C, with: 2-formylphenylboronic acid): > 6000 min

A few entries again:
Clc1ccncc1 — half-life (pH 7.4): 2530 min
CCN(CC)c1ccc2cc(C(=O)ON3C(=O)CCC3=O)c(=O)oc2c1 — half-life (chemical stability, HPLC-MS; borate buffered saline; pH 10.2, no N-acetyl-lysine): 6 min
CN(C)c1cccc2c(S(=O)(=O)NCCCCNC(=O)c3ccc(NNC(=O)OCc4ccc(O[Si](C)(C)C(C)(C)C)cc4)cc3)cccc12 — half-life (PBS; 37 °C, with: 2-formylphenylboronic acid): > 6000 min
